Published values pooled from the literature.
Numbered parts are unrelated; each lists some results of a single study.

Block 1 — method: protein-binding microarray; form: double-stranded DNA, one strand shown; sample: in vitro; concentration: 250 nM; setting: 60-bp whole probe; together with: salmon DNA 0.4 mg/ml; baseline: random background probes; direction: higher = stronger binding; shared flanks, not repeated: GCCTAGCAC … GTCTTGATTCGCTTGACGCTGCTG
Target: Interferon regulatory factor 7, full length, phosphomimetic (IRF7, Homo sapiens, UniProt Q92985, residues 1-503, S101K/S471D/S472D/S475D/S476D/S477D/S483D/S484D/S487D)
Residues (chain): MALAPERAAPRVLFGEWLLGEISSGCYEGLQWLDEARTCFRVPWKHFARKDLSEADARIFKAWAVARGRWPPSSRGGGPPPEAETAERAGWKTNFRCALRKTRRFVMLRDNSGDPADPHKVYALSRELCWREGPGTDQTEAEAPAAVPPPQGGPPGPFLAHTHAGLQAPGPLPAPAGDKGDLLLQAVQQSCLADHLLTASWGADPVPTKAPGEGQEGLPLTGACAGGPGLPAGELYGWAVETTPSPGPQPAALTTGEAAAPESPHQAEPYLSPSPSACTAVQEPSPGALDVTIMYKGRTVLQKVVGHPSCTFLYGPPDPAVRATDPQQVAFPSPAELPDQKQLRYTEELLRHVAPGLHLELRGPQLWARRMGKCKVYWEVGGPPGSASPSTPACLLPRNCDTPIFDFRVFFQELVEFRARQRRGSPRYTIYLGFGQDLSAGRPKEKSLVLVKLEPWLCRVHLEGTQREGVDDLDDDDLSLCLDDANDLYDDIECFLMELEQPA
| Oligonucleotide | log fluorescence |
| --- | --- |
| GACGGTACCCTTCTCCTGACGTGCTAG | 0.192 z-score |
| TTCACTTTCCAAAACATGAAGTGCTAG | 0.954 z-score |
| TGTCATATACACATCTTCTGGTGCTAG | 0.0284 z-score |
| GACGGTATCGTTATCCTGACGTGCTAG | 1.77 z-score |
| TCACCTCCCCCTCTGCCACTGTGCTAG | -0.315 z-score |
| TCAGCTTTCCCGTCCAGACTGTGCTAG | 0.619 z-score |
| TCACATTTTTCCCTCTGACTGTGCTAG | 1.2 z-score |
| CTCTGGTTCTTGCTTGGTGTCGTGCTA | -0.106 z-score |

Block 2 — observed: enzyme activity; mode: inhibitor; concentration: 20 µM; setting: hit confirmation
Target: Replicase polyprotein 1ab, main protease (rep, Severe acute respiratory syndrome coronavirus 2, UniProt P0DTD1)
| Structure (SMILES) | inhibition [%] |
| --- | --- |
| CSc1ccc(C(=O)c2nc(O)[nH]c2C)cc1 | 68.4 |
| NC(CN(O)N=O)C(=O)O (stereo not shown) | 3.5 |
| CO/N=C(\C(=O)N[C@@H]1C(=O)N2C(C(=O)OCOC(=O)C(C)(C)C)=C(/C=C\c3scnc3C)CS[C@H]12)c1csc(N)n1 | 24 |

Block 3 — mode: inhibitor; concentration: 20 µM
Target: Replicase polyprotein 1ab, nsp13 helicase (rep, Severe acute respiratory syndrome coronavirus 2, UniProt P0DTD1)
| SMILES | inhibition [%] |
| --- | --- |
| CC[C@@]1(O)C(=O)OCc2c1cc1n(c2=O)Cc2cc3c(N)cccc3nc2-1 | 7.97 |
| CC[C@]12CCCN3CCc4c(n(c5ccccc45)[C@@](O)(C(=O)OC)C1)[C@@H]32 | 4 |
| CN[C@@H](C)C(=O)N[C@H](C(=O)N1CCC[C@H]1C(=O)Nc1sc(-c2ncco2)nc1-c1ccccc1)C1CCCCC1 | 10.5 |
| Nc1nccc(-c2ccc3noc(-c4ccc(Cl)cc4)c3c2)n1 | 11.1 |
| Cc1ccc(S(=O)(=O)Cc2nc(-c3ccc(C(=O)NCc4cccnc4)cc3)oc2C)cc1 | 4.67 |
| C[C@H](N)C(=O)N[C@@H](C)P(=O)(O)O | -0.65 |
| O=C(O)C1(c2ccc(-c3ccc(Cl)c(Cl)c3)c(F)c2)CC1 | 2.74 |
| CC(CN1c2ccccc2Sc2ccccc21)N(C)C (stereo not shown) | 1.6 |
| Cc1[nH]nc2ccc(-c3cncc(OC[C@@H](N)Cc4ccccc4)c3)cc12 | 10.8 |
| C[C@H]1COC2=C1C(=O)C(=O)c1c2ccc2c1CCCC2(C)C | 18.1 |
| Cc1cc(-c2ccc(/N=N/c3ccc4c(S(=O)(=O)O)cc(S(=O)(=O)O)c(N)c4c3O)c(C)c2)ccc1/N=N/c1ccc2c(S(=O)(=O)O)cc(S(=O)(=O)O)c(N)c2c1O | 103 |
| COc1ccc(N2CCOCC2)c2sc(NC(=O)N3CCC(C)(O)CC3)nc12 | 7.58 |
| Cc1cn([C@H]2O[C@@H](CO)[C@H](O)[C@H]2F)c(=O)[nH]c1=O | 1.47 |
| COc1cc([C@H]2Oc3cc([C@H]4Oc5cc(O)cc(O)c5C(=O)[C@@H]4O)ccc3O[C@@H]2CO)ccc1O | 8.55 |
| CC(=O)[C@]1(O)Cc2c(O)c3c(c(O)c2[C@@H](O[C@H]2C[C@H](N)[C@H](O)[C@H](C)O2)C1)C(=O)c1ccccc1C3=O | 88.8 |
| CO/N=C(\C(=O)N[C@@H]1C(=O)N2C(C(=O)O)=C(CSc3nc(=O)c(O)nn3C)CS[C@H]12)c1csc(N)n1 | 10.6 |
| c1cn2cc(-c3ccc4cn[nH]c4c3)nc(Nc3ccc(N4CCOCC4)cc3)c2n1 | 4.84 |
| CNC(=O)c1cnn(-c2nc(N)c3ncn([C@@H]4O[C@H](CO)[C@@H](O)[C@H]4O)c3n2)c1 | -4.17 |
| CCNCCS(=O)(=O)NC[C@@]1(c2ccccc2)SC(NC(=O)C(C)(C)C)=NN1C(=O)C(C)(C)C | 2.01 |
| COc1ccc2[nH]cc(C3=CCNCC3)c2c1 | 9.16 |
| CC(C)[C@H](O)C(=O)N[C@@H](C)C(=O)N[C@@H]1C(=O)N(C)CCc2ccccc21 | -0.41 |
| CC(=C(CCOC(=O)C(C)C)SSC(CCOC(=O)C(C)C)=C(C)N(C=O)Cc1cnc(C)nc1N)N(C=O)Cc1cnc(C)nc1N (stereo in doubt) | 4.18 |
| COc1cc(Nc2ncc(F)c(Nc3ccc4c(n3)NC(=O)C(C)(C)O4)n2)cc(OC)c1OC | 6.59 |
| COc1ccc(C2CNC(=O)C2)cc1OC1CCCC1 (stereo not shown) | 2.54 |
| CN1C(CCl)Nc2cc(Cl)c(S(N)(=O)=O)cc2S1(=O)=O (stereo not shown) | 4.61 |

Block 4 — method: RNA Bind-n-Seq; form: RNA; sample: in vitro; concentration: 365 nM; baseline: no-protein control; direction: higher = stronger binding
Target: RNA binding protein fox-1 homolog 2, RRM domain, GST-SBP tag (RBFOX2, Homo sapiens, UniProt O43251-10, residues 100-194)
Setting: natural RNA segment, single round, ends assumed
Construct (chain): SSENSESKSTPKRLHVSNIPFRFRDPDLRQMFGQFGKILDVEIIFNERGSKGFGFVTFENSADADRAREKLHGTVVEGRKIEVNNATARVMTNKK
| Oligonucleotide | RBNS enrichment (R) |
| --- | --- |
| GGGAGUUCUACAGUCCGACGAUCACUGUAGAUGCUGGCCUGUCACUCUAUACCUCUCGCUUUAGUUAACCGGCAUGGAUGUGACCGGAAUGCCAUGGCCUAUCCAAGAGGAAAGGUGACCUCAGAUGCACCUGUGGAAUUCUCGGGUGCCAA | 0.58 |
| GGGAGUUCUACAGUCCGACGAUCUUCUAUUCAUUUUCAGUUAUAUGAUUGAUUUACUUAUGCCAAGAUUCUGUCACUGUCAGUUAUUUAAUGAGUGUUUUUUCAGGGUCUGUUUUAAGAUCAUUAUUUGAUAGUGGAAUUCUCGGGUGCCAA | 0.515 |
| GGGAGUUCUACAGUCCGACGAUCAGGGCCCUAACCUUCAGGGGUGGGGACACAAUUAAAGGAAGGGAAUGUAUAAAGAAAUUAUUCUUCAUUCCAAUAUAUGAAGAUACUUGCCUUUUCAGCAGCGAUGGUCUUGGAAUUCUCGGGUGCCAA | 0.328 |
| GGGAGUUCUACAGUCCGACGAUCAGGAUGAGAGUUAUACUCCUGUUGUCAAGGGAGUAUUGUGUGGUAUGUUCGGGGCAUAUUGAACAAGAAACCACUGUGUGGUAUGGGGAGGGUUGGGCCUGUUGGGGCCAUGGAAUUCUCGGGUGCCAA | 3 |
| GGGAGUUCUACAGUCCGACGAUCUGCCUGGUACCAGAAGACAGGGAGGCAGAGACUGGGAGCCGUGAUGUGCCCUUGGGCUGAGCCCUAGACUUGGGGCUCUGUACAUAGCUAUGAAGAAAAACACAAAGUGUUGGAAUUCUCGGGUGCCAA | 0.392 |
| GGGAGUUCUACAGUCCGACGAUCUAAACACUUUCUGGAACCCGAGACUUGGCCAUAAAGAUAAUGCUGCAUUUUUCUGUCAGAAUCACAUAUGAUGUGUGUUCUGUAGAGGUUAUUUCUGCAUGGAAACUCAAUGGAAUUCUCGGGUGCCAA | 0.418 |
| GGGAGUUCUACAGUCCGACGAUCAAGUCCUUGUGGUAGCCCUGGGGUAGCCUGUAGUAGACUCGGGUCCUGUCCACAGCCCUAGCUGCCAGCAAUGCUGUCCUCACAGAGGCAUAGUCGCCCCCAGCUGGGUUUGGAAUUCUCGGGUGCCAA | 0.362 |
| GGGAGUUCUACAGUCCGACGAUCACAAUGGAGGGCACCUCCUGUCACCCCCCUCCCGGAGUAGCCACGACUCCAGCCACCACCCACUGACGUUAUUUUUAUACUAGAUGAAGAGGUCAACAGCAGGCAUGGGGUGGAAUUCUCGGGUGCCAA | 0.626 |

Block 5 — method: protein binding microarray; form: double-stranded DNA, one strand shown; sample: in vitro; concentration: not given; baseline: not given; direction: higher = stronger binding
Target: Histone acetyltransferase KAT6A, winged helix 2, GST fusion (KAT6A, Homo sapiens, UniProt Q92794, residues 85-181)
Setting: 8-mer, flanks averaged, mean of 2 arrays, mostly near background
Target sequence (chain): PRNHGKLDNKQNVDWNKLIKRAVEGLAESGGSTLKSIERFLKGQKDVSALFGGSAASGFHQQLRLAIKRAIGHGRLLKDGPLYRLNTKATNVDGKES
| Oligonucleotide | E-score |
| --- | --- |
| AGTGCCAG | 0.0464 |
| CGCAAGTA | -0.00698 |
| AGTACTGC | -0.167 |
| CATGCGGC | 0.0967 |
| ACGTCCGA | -0.167 |
| TACCGCAA | 0.175 |
| ACTTCGGA | 0.0464 |
| GCGGGCAC | 0.166 |

Block 6 — cell line: HEK-293T/ACE2; concentration: 10 µM; time: 16 h; baseline: vehicle
| SMILES | viability [%] |
| --- | --- |
| O=S(=O)(O)CCS | 97.8 |
| C#C[C@]1(O)CC[C@H]2[C@@H]3CCc4cc(O)ccc4[C@H]3CC[C@@]21C | 92.8 |
| Cc1cc2nc3c(=O)[nH]c(=O)nc-3n(C[C@H](O)[C@H](O)[C@H](O)CO)c2cc1C | 102 |

Some of these lines once more (block 3):
| SMILES | inhibition [%] |
| --- | --- |
| CC(C)[C@H](O)C(=O)N[C@@H](C)C(=O)N[C@@H]1C(=O)N(C)CCc2ccccc21 | -0.41 |
| COc1ccc2[nH]cc(C3=CCNCC3)c2c1 | 9.16 |
| CCNCCS(=O)(=O)NC[C@@]1(c2ccccc2)SC(NC(=O)C(C)(C)C)=NN1C(=O)C(C)(C)C | 2.01 |
| CC[C@]12CCCN3CCc4c(n(c5ccccc45)[C@@](O)(C(=O)OC)C1)[C@@H]32 | 4 |
| O=C(O)C1(c2ccc(-c3ccc(Cl)c(Cl)c3)c(F)c2)CC1 | 2.74 |
| CC[C@@]1(O)C(=O)OCc2c1cc1n(c2=O)Cc2cc3c(N)cccc3nc2-1 | 7.97 |
| CNC(=O)c1cnn(-c2nc(N)c3ncn([C@@H]4O[C@H](CO)[C@@H](O)[C@H]4O)c3n2)c1 | -4.17 |
| Cc1ccc(S(=O)(=O)Cc2nc(-c3ccc(C(=O)NCc4cccnc4)cc3)oc2C)cc1 | 4.67 |
